Assay results of several laboratories.
Cell line: HCT-15

| Structure (SMILES) | assay | test system | conditions | how to read | measurement | value |
| --- | --- | --- | --- | --- | --- | --- |
| NNc1nc(-c2ccc(Cl)cc2)c2c(NC(=O)c3ccccc3)nnc-2[nH]1 | SRB |  | 10 µM, NCI60 single-dose screen, colon cancer | relative to: untreated | cell growth | 102% |
| C#C[C@@]1(O)[C@@H](CO)O[C@@H](n2cc(I)c3c(N)ncnc32)[C@@H]1O | SRB |  | NCI-60 screen |  | TGI | > 100 µM |
| O=C1NC(c2ccccc2)(c2ccccc2)C(=O)N1Cc1cn(-c2cc3ccccc3oc2=O)nn1 | NCI60 single-dose screen |  | 10 µM |  | growth percentage | 92.7% |
| O=C1NCCc2[nH]c(-c3ccncc3)cc21 | MTS | colon cancer |  |  | IC50 | 2540 nM |
| C#C[C@@]1(O)[C@@H](CO)O[C@@H](n2cc(F)c3c(N)ncnc32)[C@@H]1O | SRB |  | NCI-60 screen |  | TGI | 3.19 µM |
| CCCCN1CCN(c2ccc3[nH]c(-c4ccc5[nH]c(-c6ccc(C(F)(F)F)cc6)nc5c4)nc3c2)CC1 | SRB |  | 10 µM, 48 h |  | growth percent | -79% |
| CSc1nc(-c2ccc(Cl)cc2)c2c(NC(=O)c3ccccc3)nnc-2[nH]1 | SRB |  | 10 µM, NCI60 single-dose screen, colon cancer | relative to: untreated | cell growth | 100% |
| C#C[C@@]1(O)[C@@H](CO)O[C@@H](n2ccc3c(N)ncnc32)[C@@H]1O | SRB |  | NCI-60 screen |  | TGI | 4.62 µM |
| O=C(Nc1nnc2n3c(nc(-c4ccc(Cl)cc4)c1-2)SCC3=O)c1ccccc1 | SRB |  | 10 µM, NCI60 single-dose screen, colon cancer | relative to: untreated | cell growth | 101% |
| Cc1cc(C)n(C(=S)[S][Au][PH](CCCCCC[PH]([Au][S]C(=S)n2nc(C)cc2C)(c2ccccc2)c2ccccc2)(c2ccccc2)c2ccccc2)n1 | cell growth, NCI-60 screen |  | colon cancer |  | log10 TGI | > -4 |
| CCOC(=O)CSc1nc(-c2ccc(Cl)cc2)c2c(NC(=O)c3ccccc3)nnc-2[nH]1 | SRB |  | 10 µM, NCI60 single-dose screen, colon cancer | relative to: untreated | cell growth | 89.2% |
| CCCN1CCN(c2ccc3[nH]c(-c4ccc5[nH]c(-c6ccc(C(F)(F)F)cc6)nc5c4)nc3c2)CC1 | SRB |  | 10 µM, 48 h |  | growth percent | -55.1% |
| Cc1cc(=O)[nH]c(=O)n1Cc1cn(-c2cc3ccccc3oc2=O)nn1 | NCI60 single-dose screen |  | 10 µM |  | growth percentage | 105% |
| CCCCN1CCN(c2ccc3[nH]c(-c4ccc5[nH]c(-c6cc(OC)c(OC)c(OC)c6)nc5c4)nc3c2)CC1 | SRB |  | 10 µM, 48 h |  | growth percent | 99.2% |
| Cc1cc(=O)[nH]c(=O)n1Cc1cn(-c2c3ccccc3nc3ccccc23)nn1 | NCI60 single-dose screen |  | 10 µM |  | growth percentage | 79.2% |
| O=C(Nc1nnc2n3c(Cc4ccccc4)n[nH]c3nc(-c3ccc(Cl)cc3)c1-2)c1ccccc1 | SRB |  | 10 µM, NCI60 single-dose screen, colon cancer | relative to: untreated | cell growth | 102% |
| CCCCN1CCN(c2ccc3[nH]c(-c4ccc5[nH]c(-c6ccc(OCC)c(OCC)c6)nc5c4)nc3c2)CC1 | SRB |  | 10 µM, 48 h |  | growth percent | -30.4% |
| CCCC(CCC)C(=O)OCc1cn(-c2c3ccccc3nc3ccccc23)nn1 | NCI60 single-dose screen |  | 10 µM |  | growth percentage | 91.8% |
| CCCCN1CCN(c2ccc3[nH]c(-c4ccc5[nH]c(-c6ccc(OCC)cc6)nc5c4)nc3c2)CC1 | SRB |  | 10 µM, 48 h |  | growth percent | 16.6% |
| O=C(Nc1nnc2[nH]c(=S)[nH]c(-c3ccc(Cl)cc3)c1-2)c1ccccc1 | SRB |  | 10 µM, NCI60 single-dose screen, colon cancer | relative to: untreated | cell growth | 97.8% |
| COc1ccc(OC)c(-c2nc3ccc(-c4nc5ccc(N6CCN(C)CC6)cc5[nH]4)cc3[nH]2)c1 | SRB |  | 10 µM, 48 h |  | growth percent | 76% |
| CCn1cc(-c2cc(Cn3ccoc3=N)cc3c2CCN([C@@H](C)c2cc(OC)ccn2)C3=O)c(C(F)(F)F)n1 | cell growth, inhibitor |  | 120 h |  | EC50 | 3.3 µM |
